# Assay results pooled from the literature.
# Every numbered part comes from another study and shows a few of its results, in no order. Changes are numbered by the printed parent chain.

# Study 1 — technique: protein binding microarray; molecule type: double-stranded DNA, one strand shown; medium: in vitro; concentration: not given; reference: not given; reading: higher = stronger binding
# Target: Histone acetyltransferase KAT6A, both winged helices, GST fusion (KAT6A, Homo sapiens, UniProt Q92794, residues 1-181)
# Notes: 8-mer, flanks averaged, mean of 2 arrays, mostly near background
# Residues (chain): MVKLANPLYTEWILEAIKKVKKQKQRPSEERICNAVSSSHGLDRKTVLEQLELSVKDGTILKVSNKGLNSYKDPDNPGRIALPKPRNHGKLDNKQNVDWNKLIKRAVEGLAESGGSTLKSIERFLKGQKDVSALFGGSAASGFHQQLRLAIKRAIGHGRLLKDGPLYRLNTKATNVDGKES
Oligonucleotide,E-score
ACGGTAGT,0.0963
CGGACGGC,0.312
CAACCCAG,-0.193
ATACGATC,-0.0574
CCAGGGAC,-0.132
CCGTGATA,0.174
ACATTCGT,-0.122
CAAGCAGA,-0.0798
CCCAGTCA,-0.191
GATGCAGC,-0.0956
GAAGTATC,-0.118
CGCTATAG,0.144

# Study 2 — technique: Sort-seq; item: YFP reporter; medium: E. coli; notes: PhoQ-PhoP variant library; together with: 10 µM Mg2+; reference: high Mg2+ state; reading: higher = stronger signaling
# Molecule: PhoQ, residues 284 288 289 292 302 303 TVTVVA
target,fold induction
"PhoP, residues 12 14 15 18 19 GMGLL (Escherichia coli, UniProt P23836)",5.01
"PhoP, residues 12 14 15 18 19 QQAYL (Escherichia coli, UniProt P23836)",17.1
"PhoP, residues 12 14 15 18 19 LFHKL (Escherichia coli, UniProt P23836)",1.17

# Study 3 — technique: competition protein-binding microarray; molecule type: double-stranded DNA, one strand shown; medium: in vitro; concentration: 2 µM; together with: Pho4 competitor, 0.05 µM; reading: higher = stronger binding; constant ends, left off below: … GTCTTGATTCGCTTGACGCTGCTG
# Target: Centromere-binding protein 1, full length, His-tagged (CBF1, Saccharomyces cerevisiae, UniProt P17106, residues 1-351)
# Chain of UniProt P17106 (whole entry, looked up): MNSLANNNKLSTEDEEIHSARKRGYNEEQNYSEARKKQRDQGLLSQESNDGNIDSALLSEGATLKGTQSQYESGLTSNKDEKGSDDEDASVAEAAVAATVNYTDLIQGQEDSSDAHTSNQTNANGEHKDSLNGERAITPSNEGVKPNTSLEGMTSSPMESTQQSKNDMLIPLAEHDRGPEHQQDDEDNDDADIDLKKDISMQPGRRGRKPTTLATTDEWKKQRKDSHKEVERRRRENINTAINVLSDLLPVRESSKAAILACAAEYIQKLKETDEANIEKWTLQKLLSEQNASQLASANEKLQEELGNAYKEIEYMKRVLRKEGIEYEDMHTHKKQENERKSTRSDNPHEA
# Notes: whole 60-bp probe, lowest competitor level
Oligonucleotide,fluorescence intensity [a.u.]
TTTTCAAGGTCGCGGCCCGTGCAAAGCGCGGCTGGA,61.3
CGGGGTTAAGTTTGGGTCGTGGGTGGCTTGCAGCAG,79.9
TCGGTTTTTCTTACCGTCGTGGCCGTAGAGGTGAGG,62.4
TTTATCATTCGTTAACTTTCAACTATCTGATTTTGA,72.1
CTTTCCCGATCTTGAAGTGTGGGTGTAGCACATTTG,76.7
TGCGCAACAACTTGGTACGTGGGTGTATGTCTAGAA,61.1
CGGGGTTAAGTTTGTAACGTGGGTGGCTTGCAGCAG,74.1
CCAGACCGTTTAGGCCATGTGCGGATTGTACTTGTT,80.6
TGCGCAACAACTTTTCACGTGAACTTATGTCTAGAA,1170
AGTACTTGACTGCACCTCGTGTCGGAAGATTTTCCA,93.6
CGGGGTTAAGTTTTTCACGTGAGGTGCTTGCAGCAG,784
CTTTCCCGATCTTTTCACGTGAGCTTAGCACATTTG,1060
CTTCTGTAAATTTTTCACGTGTCTTGACGCGCCCCG,839
ATATGATAAAATATAGATATATACCCTTAGATATCG,102
CGGGGTTAAGTTTGATTCGTGGGTGGCTTGCAGCAG,68.7
CATGTTATCTAGCATCACCTGCCCATCATTTATCTG,296

# Study 4 — technique: DHFR PCA, deep sequencing; medium: yeast; together with: (+)-ABA 200 µM; reference: wild-type fitted maximum; reading: higher = stronger binding
# Target: ABI1, truncated, D143A, DHFR fusion (Arabidopsis thaliana)
# Notes: methotrexate growth selection, single substitutions
# Starting sequence: PYL1, truncated, DHFR fusion (Arabidopsis thaliana); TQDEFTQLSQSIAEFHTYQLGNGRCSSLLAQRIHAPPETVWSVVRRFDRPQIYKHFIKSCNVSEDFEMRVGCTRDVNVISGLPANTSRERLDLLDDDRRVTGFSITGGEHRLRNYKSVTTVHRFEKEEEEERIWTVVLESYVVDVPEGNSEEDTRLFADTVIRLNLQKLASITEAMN
Change,relative binding score
Q2W,103%
A84P,0.191%
T120R,-1.67%
L91M,96.2%
M68N,100%
T86E,91.6%
E139Y,99.9%
Y53L,2.94%
T135G,6.47%
V118C,101%
P36S,98.3%

# Repeated from above (study 3):
Oligonucleotide,fluorescence intensity [a.u.]
ATATGATAAAATATAGATATATACCCTTAGATATCG,102
CTTTCCCGATCTTTTCACGTGAGCTTAGCACATTTG,1060
CCAGACCGTTTAGGCCATGTGCGGATTGTACTTGTT,80.6
CGGGGTTAAGTTTGGGTCGTGGGTGGCTTGCAGCAG,79.9
